{"data": "Results gathered from unrelated publications", "note": "A part holds a random share of what one study measured."}
{"data": "Series 1", "cell line": "HEK-293T", "read-out": "pseudovirus infection", "technique": "FDA-approved drug library screen", "organism": "VSV pseudotyped with SARS-CoV-2 spike", "concentration": "10 µM", "time": "16 h", "relative to": "vehicle-treated"}
{"SMILES": "COc1cc(Nc2c(C#N)cnc3cc(OCCCN4CCN(C)CC4)c(OC)cc23)c(Cl)cc1Cl", "GFP-positive cells": "45.5%"}
{"SMILES": "CC[C@H]1OC(=O)[C@H](C)[C@@H](O[C@H]2C[C@@](C)(OC)[C@@H](O)[C@H](C)O2)[C@H](C)[C@@H](O[C@@H]2O[C@H](C)C[C@H](N(C)C)[C@H]2O)[C@](C)(OC)C[C@@H](C)C(=O)[C@H](C)[C@@H](O)[C@]1(C)O", "GFP-positive cells": "106%"}
{"SMILES": "CO/N=C(\\C(=O)N[C@@H]1C(=O)N2C(C(=O)OC(C)OC(C)=O)=C(COC(N)=O)CS[C@H]12)c1ccco1 (some centres unmarked)", "GFP-positive cells": "71.7%"}
{"data": "Series 2", "target": "PABPC1L2, full length, GST fusion (mouse, UniProt A0ABA7IW68)", "technique": "RNAcompete", "molecule type": "RNA", "medium": "in vitro", "concentration": "20 nM", "notes": "7-mer, probes averaged, single round", "relative to": "mean of 7-mers", "direction": "higher = stronger binding", "Target sequence (chain)": "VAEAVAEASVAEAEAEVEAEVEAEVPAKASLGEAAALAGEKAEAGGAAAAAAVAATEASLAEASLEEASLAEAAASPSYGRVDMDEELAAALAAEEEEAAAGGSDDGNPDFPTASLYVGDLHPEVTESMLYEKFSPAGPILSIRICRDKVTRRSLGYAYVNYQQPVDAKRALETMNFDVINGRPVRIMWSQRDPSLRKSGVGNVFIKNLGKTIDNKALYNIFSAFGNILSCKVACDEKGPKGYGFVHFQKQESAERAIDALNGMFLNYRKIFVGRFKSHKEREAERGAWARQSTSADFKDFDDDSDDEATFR"}
{"Sequence": "UGUUAGG", "7-mer Z-score": -0.211}
{"Sequence": "CAACUCU", "7-mer Z-score": -0.17}
{"Sequence": "AAUAAGU", "7-mer Z-score": 0.296}
{"Sequence": "ACGUUCU", "7-mer Z-score": -0.347}
{"Sequence": "ACUGACA", "7-mer Z-score": 0.037}
{"Sequence": "CGCGAGU", "7-mer Z-score": -0.414}
{"Sequence": "UCCCGCU", "7-mer Z-score": -0.472}
{"Sequence": "UUGCAGC", "7-mer Z-score": -0.271}
{"data": "Series 3", "target": "Ras GTPase-activating protein-binding protein 1, C-terminal RGG region (G3BP1, Homo sapiens, UniProt Q13283)", "technique": "RNA Bind-n-Seq", "molecule type": "RNA", "medium": "in vitro", "concentration": "1 µM", "notes": "whole 134-nt RNA, ends assumed", "added": "150 mM KCl", "relative to": "input library", "direction": "higher = stronger binding", "UniProt Q13283, sequence (whole entry, looked up)": "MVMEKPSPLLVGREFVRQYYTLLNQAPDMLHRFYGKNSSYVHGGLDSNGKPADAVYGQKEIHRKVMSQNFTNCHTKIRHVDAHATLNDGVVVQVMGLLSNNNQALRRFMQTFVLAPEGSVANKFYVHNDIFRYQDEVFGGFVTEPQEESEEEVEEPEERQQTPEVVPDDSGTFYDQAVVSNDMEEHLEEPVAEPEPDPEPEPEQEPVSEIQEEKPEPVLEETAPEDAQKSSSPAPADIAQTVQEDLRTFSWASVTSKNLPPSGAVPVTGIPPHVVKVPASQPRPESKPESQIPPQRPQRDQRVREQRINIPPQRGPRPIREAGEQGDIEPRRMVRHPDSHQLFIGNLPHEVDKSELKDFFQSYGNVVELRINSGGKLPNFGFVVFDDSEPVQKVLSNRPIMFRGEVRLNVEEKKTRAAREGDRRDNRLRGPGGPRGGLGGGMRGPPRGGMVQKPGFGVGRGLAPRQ"}
{"Sequence": "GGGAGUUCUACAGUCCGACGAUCUGGAUUAGAGAGAAAUUGAAUUUUUUCUUACUUGAACUCCUACUAAAAAGUGAACUAAAUAUUUUAUUGUAGUAAUGGCAUAGAGGAGCCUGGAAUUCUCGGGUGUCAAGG", "log2 enrichment": -1.45}
{"Sequence": "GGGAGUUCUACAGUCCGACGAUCCUCAAGUCCUGUGCUACACAUCGUAUGUACCGAAUCGGGAGGGAAAGGGUGGGAAAGUAUUAUGUUACGCCGUUCGGAUCUGCACUUCCAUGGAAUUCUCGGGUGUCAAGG", "log2 enrichment": 1.75}
{"Sequence": "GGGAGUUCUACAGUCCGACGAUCAGUCCUGUGCUACACAUCGUAUGUACCGAAUCGGGUUUUUGGGAAAAAGGGAAAGGGAAAGUAUUAUGUUACGCCGUUCGGAUCUGCACUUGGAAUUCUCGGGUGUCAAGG", "log2 enrichment": 0.36}
{"Sequence": "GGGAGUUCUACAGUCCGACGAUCCUCAAGUCCUGUGCUACACAUCGUAUGUACCGAAUCGGGGAAGGAAGGAAGGGAAAGUAUUAUGUUACGCCGUUCGGAUCUGCACUUCCAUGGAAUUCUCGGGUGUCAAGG", "log2 enrichment": -1.11}
{"Sequence": "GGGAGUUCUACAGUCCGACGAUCUCCUGUGCUACACAUCGUAUGUACCGAAUCGGGGUUUUUUGGGUUUUUUGGGUUUUUUGGAAAGUAUUAUGUUACGCCGUUCGGAUCUGCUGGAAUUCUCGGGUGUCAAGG", "log2 enrichment": -0.448}
{"Sequence": "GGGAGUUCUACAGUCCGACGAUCAGUCCUGUGCUACACAUCGUAUGUACCGAAUCGGGAAAAAGGGAAAAAAAGGGAGGGAAAGUAUUAUGUUACGCCGUUCGGAUCUGCACUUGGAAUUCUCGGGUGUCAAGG", "log2 enrichment": 0.801}
{"Sequence": "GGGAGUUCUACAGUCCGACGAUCAAGUCCUGUGCUACACAUCGUAUGUACCGAAUCGGAAAAGGGAAAAGGAAAAGGGGAAAGUAUUAUGUUACGCCGUUCGGAUCUGCACUUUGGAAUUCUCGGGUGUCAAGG", "log2 enrichment": -1.59}
{"Sequence": "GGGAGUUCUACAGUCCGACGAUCUGGGAGGUGGAUUUUGUUUAUUUUUUUAGCUCAUUUCCAGGGGUGGGAAUUUUUUUUUAAUAUGUGUCAUGAAUAACGUUGUUUUUGAAAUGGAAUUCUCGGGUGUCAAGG", "log2 enrichment": 1.48}
{"data": "Series 4", "target": "Replicase polyprotein 1ab, polymerase (rep, Severe acute respiratory syndrome coronavirus 2, UniProt P0DTD1)", "read-out": "enzyme activity", "mode": "inhibitor", "concentration": "20 µM"}
{"SMILES": "C=CC(=O)Nc1cc(Nc2nccc(-c3c[nH]c4ccccc34)n2)c(OC)cc1N(C)CCN(C)C", "inhibition [%]": -1.81}
{"SMILES": "NC(=O)CN1C=CCC(C(N)=O)=C1", "inhibition [%]": 4.94}
{"SMILES": "CN1CCN(c2c(F)cc3c(=O)c(C(=O)O)cn4c3c2SCC4)CC1", "inhibition [%]": -4.38}
{"SMILES": "CCCCN1[C@@H]2CC[C@H]1CC(OC(c1ccc(F)cc1)c1ccc(F)cc1)C2 (some centres unmarked)", "inhibition [%]": 2.49}
{"SMILES": "Cc1ncccc1OC[C@@H]1CCCN1", "inhibition [%]": 2.06}
{"SMILES": "C[C@@H]1CC[C@@]2(NC1)O[C@H]1C[C@H]3[C@@H]4CC=C5C[C@@H](O[C@@H]6O[C@H](CO)[C@@H](O[C@@H]7O[C@@H](C)[C@H](O)[C@@H](O)[C@H]7O)[C@H](O)[C@H]6O[C@@H]6O[C@@H](C)[C@H](O)[C@@H](O)[C@H]6O)CC[C@]5(C)[C@H]4CC[C@]3(C)[C@H]1[C@@H]2C", "inhibition [%]": 5.27}
{"SMILES": "C(#Cc1nc2ncccc2nc1OCCN1CCCC1)c1ccccc1", "inhibition [%]": 0.56}
{"SMILES": "N#CC1(c2ccc(NC(=O)c3cccnc3NCc3ccncc3)cc2)CCCC1", "inhibition [%]": -0.97}
{"SMILES": "O=C(O)/C=C(/CC(=O)O)C(=O)O", "inhibition [%]": 3.47}
{"SMILES": "O=C(O)[C@@H](S)[C@@H](S)C(=O)O", "inhibition [%]": 27.7}
{"SMILES": "O=C(/C=C/c1cccc(S(=O)(=O)Nc2ccccc2)c1)NO", "inhibition [%]": -7.1}
{"SMILES": "C=C1C(=O)O[C@@H]2/C=C(\\C)CC/C=C(\\C)CC[C@@H]12", "inhibition [%]": -0.63}
{"SMILES": "Nc1nc2[nH]cc(CCc3ccc(C(=O)N[C@@H](CCC(=O)O)C(=O)O)cc3)c2c(=O)[nH]1", "inhibition [%]": 30.3}
{"SMILES": "CCCCOC(=O)c1ccccc1Nc1cccc(C(F)(F)F)c1", "inhibition [%]": 0.67}
{"SMILES": "CC1(C)OC[C@@H](COC(=O)CCc2ccc(OC[C@@H](O)CNCCNC(=O)N3CCOCC3)cc2)O1", "inhibition [%]": -1.06}
{"SMILES": "COc1cccc2c1C(=O)c1c(O)c3c(c(O)c1C2=O)C[C@@](O)(C(=O)CO)C[C@@H]3O[C@H]1C[C@H](N)[C@@H](O)[C@H](C)O1", "inhibition [%]": 61.4}
{"SMILES": "N#Cc1c[nH]c2c(C(=O)N3CCN(CCc4ccc(F)cc4)CC3)cccc12", "inhibition [%]": 3.56}
{"SMILES": "O=P1(NCCCl)OCCCN1CCCl (centres unmarked)", "inhibition [%]": -2.79}
{"data": "Series 5", "target": "Replicase polyprotein 1ab, main protease (rep, Severe acute respiratory syndrome coronavirus 2, UniProt P0DTD1)", "read-out": "enzyme activity", "mode": "inhibitor", "concentration": "20 µM", "notes": "primary screen"}
{"SMILES": "CC(C)Cc1sc(N)nc1-c1ccc(P(=O)(O)O)o1", "inhibition": "27.2%"}
{"SMILES": "CN1CCN(CCCCN2C(=O)CN(/N=C/c3ccc(-c4ccc(Cl)cc4)o3)C2=O)CC1", "inhibition": "55.2%"}
{"SMILES": "Sc1nnc(-c2ccccc2Cl)o1", "inhibition": "67%"}
{"SMILES": "CCCCCCCCCCCCCCCC[N+](C)(C)Cc1ccccc1", "inhibition": "55.8%"}
{"note": "For quick reference, copied from above (series 4):"}
{"SMILES": "C[C@@H]1CC[C@@]2(NC1)O[C@H]1C[C@H]3[C@@H]4CC=C5C[C@@H](O[C@@H]6O[C@H](CO)[C@@H](O[C@@H]7O[C@@H](C)[C@H](O)[C@@H](O)[C@H]7O)[C@H](O)[C@H]6O[C@@H]6O[C@@H](C)[C@H](O)[C@@H](O)[C@H]6O)CC[C@]5(C)[C@H]4CC[C@]3(C)[C@H]1[C@@H]2C", "inhibition [%]": 5.27}
{"SMILES": "CCCCN1[C@@H]2CC[C@H]1CC(OC(c1ccc(F)cc1)c1ccc(F)cc1)C2 (some centres unmarked)", "inhibition [%]": 2.49}
{"SMILES": "CN1CCN(c2c(F)cc3c(=O)c(C(=O)O)cn4c3c2SCC4)CC1", "inhibition [%]": -4.38}
